Measured values from different studies.
Numbered parts are unrelated; each lists some results of a single study. Substitutions count along the parent as printed.

Sample 1
Target: Histone acetyltransferase KAT6A, both winged helices, GST fusion (KAT6A, Homo sapiens, UniProt Q92794, residues 1-181)
Technique: protein binding microarray
Molecule type: double-stranded DNA, one strand shown
Matrix: in vitro
Concentration: not given
Notes: 8-mer, flanks averaged, mean of 2 arrays, mostly near background
Baseline: not given
Direction: higher = stronger binding
Endpoint: E-score
Construct (chain): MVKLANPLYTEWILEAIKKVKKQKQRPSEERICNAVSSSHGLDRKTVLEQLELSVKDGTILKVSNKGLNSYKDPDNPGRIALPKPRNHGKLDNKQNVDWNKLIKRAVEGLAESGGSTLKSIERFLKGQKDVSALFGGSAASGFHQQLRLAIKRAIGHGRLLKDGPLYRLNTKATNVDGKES
CAATACCA: -0.0952
CCAACCGC: 0.18
TCCTGCCA: -0.164
CTCAACTC: -0.253
CTGTTCTA: -0.0843
CGTCGTGC: 0.109
CAACTCAG: -0.146
GACTTTCA: -0.0641
CCTCCATC: -0.211
GACGGTCA: 0.136
GTCAGGCA: -0.144
CTGCGTGA: 0.096
AACTGGAG: -0.107
CTAAAACC: 0.0115
AAACCAGT: -0.0425
AGCTACCC: -0.157
CAAGTGGG: -0.194
CACAACCA: 0.0402
ATCAGGTG: -0.181
CCATGAGG: -0.0441
GAAGTCGC: 0.169
ACCTCATA: -0.162
CCGCGCCA: 0.295
ATCGTGAG: -0.0336
AAATGCCG: 0.223

Sample 2
Target: Interferon regulatory factor 5, full length, phosphomimetic (IRF5, Homo sapiens, UniProt Q13568-2, residues 1-514, S451D/S453D/S456D/S462D)
Technique: protein-binding microarray
Molecule type: double-stranded DNA, one strand shown
Matrix: in vitro
Concentration: 940 nM top
Notes: 60-bp whole probe
Added: salmon DNA 0.4 mg/ml
Baseline: random background probes
Direction: higher = stronger binding
Endpoint: fitted relative affinity
Shared flanks, not repeated: GCCTAGCAC … GTCTTGATTCGCTTGACGCTGCTG
TCAGCAAAAATGATTGGACTGTGCTAG: -0.339 z-score
TTTGGTCTCGGTTTCGGTTAGTGCTAG: 11.5 z-score
GACGGTTTCGGGTTTTGGGACGTGCTA: 7.97 z-score
TTCGGTTCCCTTTTCCTTTAGTGCTAG: 1.27 z-score
ACCATTGTGGTTTTCATTATGTGCTAG: 0.393 z-score
TCAAATTTGAGTCACTGACTGTGCTAG: -0.426 z-score
TCAGCTCCCTTTCTCTCACTGTGCTAG: 0.929 z-score
TCAGAAATCAGTATGTTACTGTGCTAG: -0.639 z-score
TGAGGTTTCCTTATCCTTTAGTGCTAG: 1 z-score
TTAGGACTGGGTCACGGTTAGTGCTAG: -0.473 z-score
TTAGGTCTCCTAGTGCTTTAGTGCTAG: -0.404 z-score
AGCATCTTCAAGACTCATAATGTGCTA: 0.0107 z-score
TTAGGACTGCATCTCCTTTAGTGCTAG: -0.408 z-score
TCCCTTTCAGTTTTCCTCTGGTGCTAG: 2.69 z-score
GACGGTACCGGGTTTCGGGACGTGCTA: 2.31 z-score
TCAACTTTATGTAGGAAACTGTGCTAG: 0.0744 z-score
TCACTTCTTGAACTCTTACTGTGCTAG: 1.1 z-score
GACGGTATCGACTTTCGGTACGTGCTA: 5.02 z-score
GACGATTTCGTGTATCGAGACGTGCTA: 0.114 z-score
TTTCCTTTGCCTCTGAGGCTGTGCTAG: 1.44 z-score
TTAGCTATCGACACTGGGTTAGTGCTA: 0.0626 z-score
CACTAGTTTCTTTTCTTTTCGTGCTAG: 3.74 z-score
TTAGGACTGCTTTTCTTTTAGTGCTAG: 0.217 z-score

Sample 3
Target: Sal-like protein 4, full length isoform B (SALL4, Homo sapiens, UniProt Q9UJQ4-2, residues 1-616)
Technique: universal PBM
Molecule type: double-stranded DNA, one strand shown
Matrix: in vitro
Concentration: not given
Notes: 8-mer, flanks averaged, mean of replicates
Direction: higher = stronger binding
Endpoint: E-score
Target sequence (chain): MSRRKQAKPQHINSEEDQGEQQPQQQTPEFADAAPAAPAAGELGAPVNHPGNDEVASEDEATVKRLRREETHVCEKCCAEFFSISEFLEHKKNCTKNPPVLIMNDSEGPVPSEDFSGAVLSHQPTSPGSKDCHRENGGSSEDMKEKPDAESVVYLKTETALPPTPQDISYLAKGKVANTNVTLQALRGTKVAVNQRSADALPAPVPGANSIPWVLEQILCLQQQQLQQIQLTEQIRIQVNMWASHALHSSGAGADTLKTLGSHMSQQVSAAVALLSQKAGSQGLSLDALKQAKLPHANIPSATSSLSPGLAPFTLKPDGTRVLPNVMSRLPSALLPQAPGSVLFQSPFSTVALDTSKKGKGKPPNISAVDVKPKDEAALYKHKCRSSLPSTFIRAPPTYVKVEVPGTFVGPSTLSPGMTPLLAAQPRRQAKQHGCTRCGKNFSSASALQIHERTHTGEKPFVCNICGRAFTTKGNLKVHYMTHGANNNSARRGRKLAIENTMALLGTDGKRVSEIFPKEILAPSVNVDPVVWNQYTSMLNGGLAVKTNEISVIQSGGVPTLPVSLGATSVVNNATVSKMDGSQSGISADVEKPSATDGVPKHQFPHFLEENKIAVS
ATTCTTTA: 0.236
AAACAGGC: -0.13
ATGCACTA: 0.114
ATGTAAGC: 0.17
CACATCTC: -0.0317
ATGAACCC: -0.0893
ACCCTACA: 0.0683
CAAAAGCG: -0.0863
AACCGCGC: -0.204
CAACCCTA: -0.115
ACCCCTCA: -0.21
ATTAGGGG: 0.0675
GTATCGTA: 0.199
GCCTATCA: -0.02
CCCAACGC: -0.162
CCAGATTA: 0.192
TAAGCTGA: 0.0571
CAGTATGA: 0.177
ATCATAAA: 0.391
ACGGGCGA: -0.275
AACGCCAG: -0.172
AAAACAGA: 0.188
AAAACCAG: -0.0474
CACAGCGG: -0.222
CCTGGTAA: -0.0648

Sample 4
Target: Ras GTPase-activating protein-binding protein 1, full length (G3BP1, Homo sapiens, UniProt Q13283)
Chain of UniProt Q13283 (whole entry, looked up): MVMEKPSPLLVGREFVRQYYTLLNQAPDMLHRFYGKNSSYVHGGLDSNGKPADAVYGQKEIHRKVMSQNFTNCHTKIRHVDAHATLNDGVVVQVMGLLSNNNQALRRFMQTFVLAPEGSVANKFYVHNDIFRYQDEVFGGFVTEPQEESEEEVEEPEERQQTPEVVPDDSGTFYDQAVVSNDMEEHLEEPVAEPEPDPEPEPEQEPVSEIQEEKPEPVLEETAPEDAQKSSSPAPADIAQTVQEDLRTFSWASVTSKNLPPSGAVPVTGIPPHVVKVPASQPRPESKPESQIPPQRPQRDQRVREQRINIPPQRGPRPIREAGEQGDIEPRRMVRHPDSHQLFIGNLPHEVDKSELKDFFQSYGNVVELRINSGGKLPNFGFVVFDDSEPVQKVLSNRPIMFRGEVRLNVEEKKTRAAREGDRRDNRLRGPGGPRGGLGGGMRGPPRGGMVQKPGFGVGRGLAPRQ
Technique: RNA Bind-n-Seq
Molecule type: RNA
Matrix: in vitro
Concentration: 200 nM
Notes: whole 134-nt RNA, ends assumed
Added: 150 mM LiCl
Baseline: input library
Direction: higher = stronger binding
Endpoint: log2 enrichment
All molecules: 7-deaza-guanosine replaces G
Shared flanks, not repeated: GGGAGUUCUACAGUCCGACGAUC … UGGAAUUCUCGGGUGUCAAGG
UGUGCUACACAUCGUAUGUACCGAAUCGGGGCCCCCCCGGGCCCCCCCGGGGCCCCCCCGGGGAAAGUAUUAUGUUACGCCGUUCGGAUC: -0.084
CACAGACAACACGCACCCACACAGACACAGAGGGAAGGGGUUGGGAUGGGAAAAGGGUGCACAGCAGGGCGGGGUAGGACCCCAGCCCCU: 0.194
CACAGACAACACGCACCCACACAGACACAGAGGGAAGGGGUUGGCAUGGGGACAGGGUGCACAGCAGGGCGGGGUAGGACCCCAGCCCCU: -1.12
UGGCCCUGGUGCCAUGCGGGGAGGAAGAGGUGGCCUCAUGGAUCGUGGUGGUCCCGGUGGAAUGUUCAGAGGUGGCCGUGGUGGAGACAG: 0.149
CAAGUCCUGUGCUACACAUCGUAUGUACCGAAUCGGGUUUGGGAAAAAGGGAGGGAAAGUAUUAUGUUACGCCGUUCGGAUCUGCACUUC: 0.365
GUCCUGUGCUACACAUCGUAUGUACCGAAUCGGGGAAAGGGGAAAGGGGAAAAAGGGGAAAGUAUUAUGUUACGCCGUUCGGAUCUGCAC: 0.518
CCUGUGCUACACAUCGUAUGUACCGAAUCGGGGAAAAAAAGGGGUGGGGAAAAAAAGGGGAAAGUAUUAUGUUACGCCGUUCGGAUCUGC: -0.702
UCAAGUCCUGUGCUACACAUCGUAUGUACCGAAUCGGGAAAAAGGGUGGGUGGGAAAGUAUUAUGUUACGCCGUUCGGAUCUGCACUUCC: -0.703
CUCAAGUCCUGUGCUACACAUCGUAUGUACCGAAUCGGUUUGGUUUGGGUUUGGAAAGUAUUAUGUUACGCCGUUCGGAUCUGCACUUCC: 0.194
CCUGUGCUACACAUCGUAUGUACCGAAUCAAACCCCCAAAUUUUUUUAAAUUUUUUUAAAAAAGUAUUAUGUUACGCCGUUCGGAUCUGC: 1.37
UUAAAGAAGAGGGUGUGCGGGACGUCCUUAAGGAUGUACUGCUCCCAUGGUACAAUGCCUAUCGCUUCUUAAUCCAGAACGUUCUGAGGC: -1.86

Sample 5
Target: CCNE2, cyclin fold, Cln2 fusion (human)
Technique: yeast growth competition, sequencing
Matrix: yeast
Notes: strong parent motif
Baseline: not given
Direction: higher = stronger binding
Endpoint: normalised enrichment score
Starting sequence: RBL1 docking peptide (human); GSAKRRLFGEDPP
GSAKRYLFGEDPP [R6Y]: 0.555
GSAKRRLFGEWPP [D11W]: 3.77
GSAKQRLFGEDPP [R5Q]: -0.0263
GSAWRRLFGEDPP [K4W]: 0.935
WSAKRRLFGEDPP [G1W]: 3.88
GSAKRRLLGEDPP [F8L]: 0.71
GSAQRRLFGEDPP [K4Q]: 0.699
GCAKRRLFGEDPP [S2C]: 4.81
GSYKRRLFGEDPP [A3Y]: 3.4
GSAIRRLFGEDPP [K4I]: 2.21
GSAKRRLFGCDPP [E10C]: 3.01
GSMKRRLFGEDPP [A3M]: 0.0331
GSAKRRFFGEDPP [L7F]: 0.769
GSAKRRLGGEDPP [F8G]: -0.00856
GSQKRRLFGEDPP [A3Q]: 0.255
GSAKRRSFGEDPP [L7S]: 0.0526
GSAKRRLFGEDIP [P12I]: 4.02

Sample 6
Target: RNA binding protein fox-1 homolog 2, RRM domain, GST-SBP tag (RBFOX2, Homo sapiens, UniProt O43251-10, residues 100-194)
Technique: RNA Bind-n-Seq
Molecule type: RNA
Matrix: in vitro
Concentration: 365 nM
Notes: natural RNA segment, single round, ends assumed
Baseline: no-protein control
Direction: higher = stronger binding
Endpoint: RBNS enrichment (R)
Shared flanks, not repeated: GGGAGUUCUACAGUCCGACGAUC … UGGAAUUCUCGGGUGCCAA
Construct (chain): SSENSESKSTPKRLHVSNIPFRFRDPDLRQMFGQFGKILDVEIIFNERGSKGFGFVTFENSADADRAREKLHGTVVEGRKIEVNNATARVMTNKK
AUUACAAGUAAUGUAAAGAUGAUUUAAGUAUACAGGAGGAUGUGAAUAGGUUAUAUGCAAGCACUAUGCCCUUUUAUAUAAGUGACUUGAACAUCUGUGCCCGAUUUUAG: 0.8
GCUUUUUAAAAAUGACAAAUAUGUACUGUGUUGUGAUAAAAAGUAUUUUAUUUGUUUAAUGAUAUGCAUGCUUUUCUUCUGUAAAUAUAUAAUAAAUUUUUGUAGAUAGU: 86.8
GCCUACUCCGCUCACUGAACUCCUUCCCCACUUCUGUGCCACCCCCGGUCUAUGUCGAGAGCUGGCCAAAGAGCCUUUCCAAAGAGGAGCGAUGGGCCCCUGGCCCCGCC: 0.649
UUCAUUUUAAGGGCACACGCAGCAGAGGCUGGUUUGGAGACUAACACAUUUUGCAUUCUGCAUUGUUGUCUUAGAGCACACACACGUUAGACAGCGGGUUGCAGCCACCC: 0.709
UUGGAUCGAAACAGAACCGUUUACCCACCUUUACAAACUAGAGAAUAAAGAUUUGGUUUUAGAACUAGUGGCUGGUGGUGUUCUUUUCUGUGAGAGCUGUGGUGAUGGGG: 0.423
ACCUCUGGGAUCACGUUGAGUUCUAUUUAUUUAUUUACUUAUUUAUUUAUUUGUACCCACCCUUCCCUCACUUCUGCCCAGCUGGGCUCCAGAGAGAGGACCCUGCCCAU: 0.318
CUGUUUUGAGAAGCAGUGGUUGGGGCAUUUUUAAGAUGGCUGGCUACUCUUGUUUUCCCUCAUGAUAAUAAAUUUGUCAUAACUCAGUAACAUGAACUUGCCCCUAGAGG: 0.441
GCAACAACCUUCUCAUUGAGAUGCUGCAGGCCAAGCAGACUUGAGCCUGGGUGCCAGGCAGCGGGCAAUAGGCAGGGAUGCCACUGCCUCCAAAAGACUCCUUGCAUUAG: 1.08
GUCUGGUUCUAAUAAUUGGUACCCUCUUUCUCGGUUCCAUAUUUUUAACAACCCUUUAACAAACUAAAUAAUUUUUAAGCAGCCAGGAAAUUUUAGAGGACAGAUAUUUG: 0.606
UCAUUCCUUCCAAGAUGAGAAAAACUUGCCGCCACCCCCCGACACUGAUGCCAGGGAGGUGGGAGGAAGAAGUGGGAAAUUUCCCUUCCCAGUACCCCCAAGAACGUCUG: 0.227
GUGCUGGAAUUAGCCUGGCCAAUCUUGGAUUUUUAAUGGAAUAUGUGGGCACAAAAUGACAGAACAUAGGACAUUCUAAAGUUCCUUGAUUUGAUCAUUAUAAGAAGUGU: 0.508
GAGCCAAGGCAAGGAUUUGUGUUUGCCAAAAAUGUUCUGGGGACCCAGCCAGUGUGGGUCUGAACAUCCCCGCCCACCCCCAGACUGCAUUCUCAUCAGGGUUUCUUGUG: 0.699
